Experimental data from different studies.
Every numbered part comes from another study and shows a few of its results, in no order.

Study 1
Target: RNA binding protein fox-1 homolog 2, RRM domain, GST-SBP tag (RBFOX2, Homo sapiens, UniProt O43251-10, residues 100-194)
Method: RNA Bind-n-Seq
Molecule type: RNA
Medium: in vitro
Concentration: 365 nM
Notes: natural RNA segment, single round, ends assumed
Baseline: no-protein control
Direction: higher = stronger binding
Construct (chain): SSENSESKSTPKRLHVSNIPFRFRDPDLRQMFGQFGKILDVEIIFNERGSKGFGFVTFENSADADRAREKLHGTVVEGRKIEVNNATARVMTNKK
Under “RBNS enrichment (R)”, `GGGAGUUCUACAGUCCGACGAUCGCCAACUUAAAGUUUUAGUUUGGUGUUUAUUGAAAAUUAACCAAACUUAAUACUAGGAGAAGACUGAAUCAUUAAUGAUGUCUCACAAAUUACUGUGUACCUAAGUGGUGUGGAAUUCUCGGGUGCCAA` is recorded as 0.316.
Under “RBNS enrichment (R)”, `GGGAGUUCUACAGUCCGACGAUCGUGCACACGCCUUCCUUCCCUCCCAGGCACUCCACGGAGUCAUCUUGGGUCUCCUGGGAUUCUAGGAGUGACAGACCAGGCUGUGGCCUCUGCACCCCACCCCUCACCCUUGGAAUUCUCGGGUGCCAA` is recorded as 0.334.
`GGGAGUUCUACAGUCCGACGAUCUCUUCCCUCCCACUGAACACUAUUCCCAUAGUUUCCUUUUGCUCCCCAGCCUGUAAUUCUAAGUUCAACAAAACAGUUGUCAACAAAAGUGACUGAGGCUUCCACCAGAGUGGAAUUCUCGGGUGCCAA`: “RBNS enrichment (R)” 1.03.
Under “RBNS enrichment (R)”, `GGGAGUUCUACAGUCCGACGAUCUCUUGUUUUAUAAAUUUCACUGUUGUUUCUAUAUUAGCAAUUAAUAUUAAAAUAUAUUUUAUAUUUUAUUCAUUAAUAUAACAACAAUCCUAUCAGGAAAAGUUUCUAGAUGGAAUUCUCGGGUGCCAA` is recorded as 1.95.
`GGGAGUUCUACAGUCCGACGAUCGUCACUCAAAAAUACCAGGUUUCCUGAAUAUGUUAUUAAGAAUUUCAGAUAUCCAAGCAGAAUUUUAUUAUGGACACCUUGUAAUGAAUUCAAAUCGUGUGACAGCAAACUGGAAUUCUCGGGUGCCAA` — result for “RBNS enrichment (R)”: 0.43.
`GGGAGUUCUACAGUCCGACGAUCUGUGUACACUGUUUGGUGCCCCUUCCCCACCAGUGCCUCCCUUCUCUUUCUUGGUUUCCAGAGGAACUGAGCCUGAGUGGGCUCUGCCAGUGCCUAGUGGAACUGUCCACUGGAAUUCUCGGGUGCCAA` — result for “RBNS enrichment (R)”: 0.519.
Under “RBNS enrichment (R)”, `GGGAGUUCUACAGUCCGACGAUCCCCCCAAGCCCUGAGUUUGCACCGAAGUCCUGAAUCAGAUCCUCAGAGCCCGGAGUUUGAAUCCCAGAGUCCUAAGUAUGAGCCCCGAAGCCCUGGCUGCCAUCCCAGGAUGGAAUUCUCGGGUGCCAA` is recorded as 0.501.
Under “RBNS enrichment (R)”, `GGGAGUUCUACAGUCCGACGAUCUGGUUAUAAAAAUGUUAAUUCAGAAUUAGUUUAAUGCCUUAAUUAAACUAAUUAAUAGCUUUGGACACUUAAAAGAGCUCUAAAUUUGCUUGUACAUAAAGGCUUAAUUUUGGAAUUCUCGGGUGCCAA` is recorded as 2.49.

Study 2
Target: Sal-like protein 4, full length isoform B (SALL4, Homo sapiens, UniProt Q9UJQ4-2, residues 1-616)
Method: universal PBM
Molecule type: double-stranded DNA, one strand shown
Medium: in vitro
Concentration: not given
Notes: 8-mer, flanks averaged, mean of replicates
Direction: higher = stronger binding
For `ACTCGTAT`, the E-score was 0.12.
With `CGAATCGA` the E-score was 0.0147.
`GTTTCTTA` has an E-score of 0.051.
`AACGCCCT` gave an E-score of -0.0214.
With `AGGTTGAC` the E-score was -0.0554.
With `CAGTCGGA` the E-score was -0.17.
The E-score of `CCGGATGC` is reported as -0.353.
With `AGGCTTCA` the E-score was -0.145.
With `ATAGCCTC` the E-score was -0.0405.
`CCGCGTTA` has an E-score of -0.144.
`AAAGAGGG` gave an E-score of -0.0707.
`CCCTGAAC` gave an E-score of 0.0474.
`CCCGGCCC` gave an E-score of -0.322.
For `ATTTTCCG`, the E-score was 0.344.
`CACTGCCC` gave an E-score of -0.218.
`GCAAGACA` has an E-score of 0.00494.
`CCGATGGC` gave an E-score of -0.3.
The E-score of `AACACCCA` is reported as -0.132.
For `AGGAGGTG`, the E-score was -0.176.
For `ATTATTGA`, the E-score was 0.428.
For `CAAACCTG`, the E-score was -0.101.
For `ATGGCCAT`, the E-score was 0.105.
For `AGACAGGA`, the E-score was 0.153.
The E-score of `ACGGGTTC` is reported as -0.213.
With `CTTAGGGA` the E-score was -0.115.

Study 3
Target: Ras GTPase-activating protein-binding protein 1, C-terminal RGG region (G3BP1, Homo sapiens, UniProt Q13283)
UniProt Q13283, sequence (whole entry, looked up): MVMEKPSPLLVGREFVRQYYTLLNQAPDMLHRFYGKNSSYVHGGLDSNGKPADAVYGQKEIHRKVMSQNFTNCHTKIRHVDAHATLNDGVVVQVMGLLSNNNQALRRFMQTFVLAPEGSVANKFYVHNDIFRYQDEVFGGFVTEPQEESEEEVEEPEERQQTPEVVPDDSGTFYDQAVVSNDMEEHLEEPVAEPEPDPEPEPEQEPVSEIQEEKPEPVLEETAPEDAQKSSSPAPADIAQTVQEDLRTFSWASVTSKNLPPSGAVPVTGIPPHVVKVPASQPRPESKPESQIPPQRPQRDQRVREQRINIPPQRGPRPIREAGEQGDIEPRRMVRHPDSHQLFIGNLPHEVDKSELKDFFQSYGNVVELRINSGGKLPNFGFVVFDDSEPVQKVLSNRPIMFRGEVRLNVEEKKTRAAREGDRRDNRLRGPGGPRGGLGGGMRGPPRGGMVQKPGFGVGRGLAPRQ
Method: RNA Bind-n-Seq
Molecule type: RNA
Medium: in vitro
Concentration: 1 µM
Notes: whole 134-nt RNA, ends assumed
With: 150 mM KCl
Baseline: input library
Direction: higher = stronger binding
For `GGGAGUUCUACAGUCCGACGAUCCUGUGCUACACAUCGUAUGUACCGAAUCGGGCCCCCCCGGGGCCCCCCCGGGCCCCCCCGGAAAGUAUUAUGUUACGCCGUUCGGAUCUGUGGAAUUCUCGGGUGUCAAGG`, the log2 enrichment was -1.61.
With `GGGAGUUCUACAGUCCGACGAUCCUCAAGUCCUGUGCUACACAUCGUAUGUACCGAAUCGGUUGGUUGGGGUUGGGGAAAGUAUUAUGUUACGCCGUUCGGAUCUGCACUUCCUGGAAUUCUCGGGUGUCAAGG` the log2 enrichment was -0.449.
The log2 enrichment of `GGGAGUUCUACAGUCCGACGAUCCACAGACAACACGCACCCACACAGACACAGAGGGAAGGGGUUGGGAUGGGGACAGGGUUCACAGCAGGGCGGGGUAGGACCCCAGCCCCUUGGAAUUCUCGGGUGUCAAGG` is reported as -0.605.
For `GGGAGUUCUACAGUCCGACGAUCCUGUGCUACACAUCGUAUGUACCGAAUCGGGGCCCCCCGGGGCCCCCCGGGGCCCCCCGGGAAAGUAUUAUGUUACGCCGUUCGGAUCUGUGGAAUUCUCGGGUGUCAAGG`, the log2 enrichment was -2.15.
`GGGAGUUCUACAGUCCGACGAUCUCAUUUUUUUCCCUGCCGGAAUUUUAGCAUUGAUAUGAACCAUGGACAAGUAUAUUCUGCUGCCACAAAGACUGUAAAGUGCUUCAUUUCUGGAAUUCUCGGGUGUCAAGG` has a log2 enrichment of -0.534.
`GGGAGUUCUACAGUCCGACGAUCUAACUUUAGAGGAGGAUCUGAUGGAUAUGGCAGUGGACGUGGACUUGGGGAUGGCUAUAAUGGGUAUGGAGGAGGACCUGGAGGUGGCAAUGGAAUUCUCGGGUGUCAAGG` gave a log2 enrichment of -0.384.
With `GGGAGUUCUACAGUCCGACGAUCACGAUGCAGGUGGGCAUCUUUGGGAAGUGGGGCAAGGGGGGGAUAGGGAGGGGGGUAACACUUUGGGAACAGGUGGUCCCAGGUCGUUUCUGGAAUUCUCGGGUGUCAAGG` the log2 enrichment was -1.2.
For `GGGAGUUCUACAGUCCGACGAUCAAGUCCUGUGCUACACAUCGUAUGUACCGAAUCGGUUUUUGGUUUUUGGUUUUUGGGAAAGUAUUAUGUUACGCCGUUCGGAUCUGCACUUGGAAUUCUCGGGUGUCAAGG`, the log2 enrichment was -1.81.
The log2 enrichment of `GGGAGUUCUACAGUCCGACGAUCCCUGUGCUACACAUCGUAUGUACCGAAUCGGGAAAAAAAGGGAAAAAAAGGGAAAAAAAGGAAAGUAUUAUGUUACGCCGUUCGGAUCUGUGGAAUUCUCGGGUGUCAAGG` is reported as -1.7.

Study 4
Target: Histone acetyltransferase KAT6A, winged helix 1, GST fusion (KAT6A, Homo sapiens, UniProt Q92794, residues 1-85)
Method: protein binding microarray
Molecule type: double-stranded DNA, one strand shown
Medium: in vitro
Concentration: not given
Notes: 8-mer, flanks averaged, mean of 2 arrays, mostly near background
Baseline: not given
Direction: higher = stronger binding
Residues (chain): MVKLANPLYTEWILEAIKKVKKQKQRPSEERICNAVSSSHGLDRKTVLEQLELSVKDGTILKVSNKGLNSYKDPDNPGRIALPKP
`CTCGATGA` gave an E-score of -0.0444.
`CAAAGCAC` has an E-score of -0.0675.
For `AAAGTGTG`, the E-score was -0.238.
`TCAGCCGA` has an E-score of 0.0935.
`ATTGTGTA` gave an E-score of -0.0762.
For `CTCCACCA`, the E-score was -0.187.
`ATCTGAGA` has an E-score of -0.266.
The E-score of `CAGATCTA` is reported as -0.11.
The E-score of `TCGATCGA` is reported as -0.0162.
The E-score of `CGCCTTTC` is reported as 0.188.
With `ACGCTTAA` the E-score was -0.0741.
For `AGATGTAA`, the E-score was -0.053.
`AATCGGGA` has an E-score of 0.0926.
With `ACGTGCGA` the E-score was 0.122.
For `CGCAAGGA`, the E-score was -0.0115.
For `GCCACGGC`, the E-score was 0.373.
`AAGCAGGT` gave an E-score of -0.013.
The E-score of `GGTAGTAC` is reported as 0.00758.
The E-score of `GCGCTTAC` is reported as 0.377.
`CCCGTCGC` has an E-score of 0.44.
`GGAACCCA` gave an E-score of -0.134.
The E-score of `ATGAAGCG` is reported as 0.109.

A few entries again (study 3):
With `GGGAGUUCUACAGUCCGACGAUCCUCAAGUCCUGUGCUACACAUCGUAUGUACCGAAUCGGUUGGUUGGGGUUGGGGAAAGUAUUAUGUUACGCCGUUCGGAUCUGCACUUCCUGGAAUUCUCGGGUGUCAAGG` the log2 enrichment was -0.449.
`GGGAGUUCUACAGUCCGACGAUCUAACUUUAGAGGAGGAUCUGAUGGAUAUGGCAGUGGACGUGGACUUGGGGAUGGCUAUAAUGGGUAUGGAGGAGGACCUGGAGGUGGCAAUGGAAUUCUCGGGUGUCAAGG` gave a log2 enrichment of -0.384.
For `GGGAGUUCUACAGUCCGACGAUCCUGUGCUACACAUCGUAUGUACCGAAUCGGGGCCCCCCGGGGCCCCCCGGGGCCCCCCGGGAAAGUAUUAUGUUACGCCGUUCGGAUCUGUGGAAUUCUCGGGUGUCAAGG`, the log2 enrichment was -2.15.
For `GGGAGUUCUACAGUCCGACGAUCAAGUCCUGUGCUACACAUCGUAUGUACCGAAUCGGUUUUUGGUUUUUGGUUUUUGGGAAAGUAUUAUGUUACGCCGUUCGGAUCUGCACUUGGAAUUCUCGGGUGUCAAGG`, the log2 enrichment was -1.81.
With `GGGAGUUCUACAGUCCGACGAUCACGAUGCAGGUGGGCAUCUUUGGGAAGUGGGGCAAGGGGGGGAUAGGGAGGGGGGUAACACUUUGGGAACAGGUGGUCCCAGGUCGUUUCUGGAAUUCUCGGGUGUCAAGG` the log2 enrichment was -1.2.
The log2 enrichment of `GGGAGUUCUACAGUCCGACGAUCCCUGUGCUACACAUCGUAUGUACCGAAUCGGGAAAAAAAGGGAAAAAAAGGGAAAAAAAGGAAAGUAUUAUGUUACGCCGUUCGGAUCUGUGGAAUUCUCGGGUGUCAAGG` is reported as -1.7.
`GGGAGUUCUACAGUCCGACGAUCUCAUUUUUUUCCCUGCCGGAAUUUUAGCAUUGAUAUGAACCAUGGACAAGUAUAUUCUGCUGCCACAAAGACUGUAAAGUGCUUCAUUUCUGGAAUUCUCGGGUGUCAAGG` has a log2 enrichment of -0.534.
The log2 enrichment of `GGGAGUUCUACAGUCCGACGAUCCACAGACAACACGCACCCACACAGACACAGAGGGAAGGGGUUGGGAUGGGGACAGGGUUCACAGCAGGGCGGGGUAGGACCCCAGCCCCUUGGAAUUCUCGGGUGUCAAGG` is reported as -0.605.
For `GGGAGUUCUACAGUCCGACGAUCCUGUGCUACACAUCGUAUGUACCGAAUCGGGCCCCCCCGGGGCCCCCCCGGGCCCCCCCGGAAAGUAUUAUGUUACGCCGUUCGGAUCUGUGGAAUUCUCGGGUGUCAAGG`, the log2 enrichment was -1.61.
